Results pooled from the literature.
Each line is one published result; not all experiments were run side by side. ± gives the spread as reported.
Cell line: HCT-116

With `O=C(NOC[C@H](O)CO)c1ccc(F)c(F)c1Nc1ccc(I)cc1F` the viability was 74.5% (0.07813 µM, 72 h).
`O=[N+]([O-])c1cc(I)c(O)c(C=NNc2ccccc2)c1` — result for “early apoptotic cells”: 19.9% (annexin V; IC50).
For `CCn1cc(-c2cc(Cn3ccoc3=N)cc3c2CCN([C@@H](C)c2cc(OC)ccn2)C3=O)c(C(F)(F)F)n1`, the EC50 was 22.3 µM (cell growth, inhibitor; 120 h).
The log10 TGI of `S=C([S][Au-][P+](CCCCCC[P+]([Au-][S]C(=S)n1cccn1)(c1ccccc1)c1ccccc1)(c1ccccc1)c1ccccc1)n1cccn1` is reported as over -4 (cell growth, NCI-60 screen; colon cancer).
`NC(=O)NOCCCCCCCCCCCC[P+](c1ccccc1)(c1ccccc1)c1ccccc1.O=C([O-])C(F)(F)F` has a cell confluence of 3.1 ± 0.62% (cell growth, live-cell imaging; 5 µM, control at 90% confluence).
`COc1nc(NCc2cn(-c3ccc(C(=O)Nc4ccccc4)cc3)nn2)nc(OC)n1` — result for “cell cycle phase %G2-M”: 3.57% (flow cytometry; IC50, 24 h).
`COc1cccc2c1C(=O)c1c(O)c3c(c(O)c1C2=O)C[C@@](O)(C(=O)CO)C[C@@H]3O[C@H]1C[C@H](N)[C@H](O)[C@H](C)O1` — result for “cells in pre-G1 phase”: 24.7% (flow cytometry; 3.66 µM (IC50), 72 h).
For `O=C(Nc1nnc2n3c(nc(-c4ccc(Cl)cc4)c1-2)SCC3=O)c1ccccc1`, the cell growth was 98.8% (SRB; 10 µM, NCI60 single-dose screen, colon cancer; relative to: untreated).
`O=[N+]([O-])c1cc(Br)c(O)c(C=NNc2ccccc2)c1` — result for “cells in S phase”: 17.7% (Muse cell cycle; IC50, 24 h).
`CCOC(=O)c1sc(=NN=C(C)c2c(O)c3ccccc3oc2=O)[nH]c1C` gave a selectivity index of over 4.9 (cell growth, MTT; relative to: IC50 BJ-1 over HCT-116).
The TNF-alpha reduction of `O=[N+]([O-])c1ccc(O)c(C=NNc2ccc(Br)cc2)c1` is reported as 50.6% (ELISA; IC50, added: LPS).
`Cc1cc(-c2ccccc2)n(-c2nc(-c3ccc(Cl)cc3)c3c(NC(=O)c4ccccc4)nnc-3[nH]2)n1` gave a cell growth of 100% (SRB; 10 µM, NCI60 single-dose screen, colon cancer; relative to: untreated).
For `O=[N+]([O-])c1cc(Br)c(O)c(C=NNc2ccc(C(F)(F)F)cc2)c1`, “late apoptotic or dead cells” read 86% (annexin V; IC50).
For `O=C(Nc1nnc2n3c(=S)[nH][nH]c3nc(-c3ccc(Cl)cc3)c1-2)c1ccccc1`, the cell growth was 92.7% (SRB; 10 µM, NCI60 single-dose screen, colon cancer; relative to: untreated).
`CN1CCN(c2ccc3[nH]c(-c4ccc5[nH]c(-c6ccc(C(F)(F)F)cc6)nc5c4)nc3c2)CC1` has a growth percent of 21.1% (SRB; 10 µM, 48 h).
With `CC(=O)c1sc(=NN=C(C)c2c(O)c3ccccc3oc2=O)n(C)c1C` the selectivity index was over 4.12 (cell growth, MTT; relative to: IC50 BJ-1 over HCT-116).
The IL-6 level of `O=P1(C2CCCCC2)CCCCC1` is reported as 4 ± 0.36 pg/mL (ELISA; IC50, 72 h).
For `CNC(=S)NN=C(C)c1c(O)c2ccccc2oc1=O`, the selectivity index was over 13.9 (cell growth, MTT; relative to: IC50 BJ-1 over HCT-116).
With `O=C(/C=C/C=C/C=C/C1CCCCC1)NC1=C[C@@](O)(/C=C/C=C/C=C/C(=O)NC2=C(O)CCC2=O)[C@@H]2O[C@@H]2C1=O` the GI50 was 19.6 µM (cell growth, CellTiter-Glo; 78 h).
`Cc1nc2ccc(Br)cc2c(=O)n1/N=C/c1ccc(C(=O)O)cc1` gave an IC50 of 572 ± 14.7 µM (cytotoxicity, LDH release; 24 h, 50% viability reduction).
`NC(=O)NOCCCCCCCCCCCCCCCC[P+](c1ccccc1)(c1ccccc1)c1ccccc1.O=C([O-])C(F)(F)F` has a cell confluence of 4% (cell growth, live-cell imaging; 5 µM, control at 90% confluence).
`O=C1NC(c2ccccc2)(c2ccccc2)C(=O)N1Cc1cn(-c2c3ccccc3nc3ccccc23)nn1` has a growth percentage of 68.1% (NCI60 single-dose screen; 10 µM).
`CC(=NN=c1sc(N=Nc2ccc(C)cc2)c(C)n1C)c1c(O)c2ccccc2oc1=O` has a selectivity index of over 1.81 (cell growth, MTT; relative to: IC50 BJ-1 over HCT-116).
For `NC(=O)NOCCCC[P+](c1ccccc1)(c1ccccc1)c1ccccc1.O=C([O-])C(F)(F)F`, the cell confluence was 90.8% (cell growth, live-cell imaging; 200 µM, control at 90% confluence).
`COc1nc(NCc2cn(-c3ccc(C(=O)Nc4ccc(C(F)(F)F)cc4)cc3)nn2)nc(OC)n1` — result for “G0/G1 phase cells”: 1.14 fold (flow cytometry; IC50, 24 h; relative to: untreated).
The IC50 of `O=C1NCCc2[nH]c(-c3ccncc3)cc21` is reported as 1.26 µM (MTS; colon cancer).
For `CCCCN1CCN(c2ccc3[nH]c(-c4ccc5[nH]c(-c6ccc(OCC)c(OCC)c6)nc5c4)nc3c2)CC1`, the growth percent was -79.7% (SRB; 10 µM, 48 h).
`NC(=O)NOCCCCCCCCCC[P+](c1ccccc1)(c1ccccc1)c1ccccc1.O=C([O-])C(F)(F)F` gave a cell confluence of 1.74% (cell growth, live-cell imaging; 30 µM, control at 90% confluence).
With `CCCC(CCC)C(=O)OCc1cn(-c2c3ccccc3nc3ccccc23)nn1` the growth percentage was 65.5% (NCI60 single-dose screen; 10 µM).
The cell confluence of `NC(=O)NOCCCCCCCCCCCCCCCCCCCC[P+](c1ccccc1)(c1ccccc1)c1ccccc1.O=C([O-])C(F)(F)F` is reported as 88.8 ± 1.62% (cell growth, live-cell imaging; 0.1 µM, control at 90% confluence).
With `Cn1cnc2c(F)c(Nc3ccc(Br)cc3F)c(C(=O)NOCCO)cc21` the viability was 97.5% (0.03906 µM, 72 h).
The maximal cytotoxicity of `COc1cccc2c1C(=O)c1c(O)c3c(c(O)c1C2=O)C[C@@](O)(C(=O)CO)C[C@@H]3O[C@H]1C[C@H](N)[C@H](O)[C@H](C)O1` is reported as 99.3% (WST-1; concentration not given, 72 h, highest tested concentration).
`NC(=O)NOCCCCCCCCCCCCCC[P+](c1ccccc1)(c1ccccc1)c1ccccc1.O=C([O-])C(F)(F)F` gave a cell confluence of 89.4% (cell growth, live-cell imaging; 0.1 µM, control at 90% confluence).
For `COc1cccc2c1C(=O)c1c(O)c3c(c(O)c1C2=O)C[C@@](O)(C(=O)CO)C[C@@H]3O[C@H]1C[C@H](N)[C@H](O)[C@H](C)O1`, “cell cycle phase %G0-G1” read 44.1% (flow cytometry; IC50, 24 h).
`CCCCN1CCN(c2ccc3[nH]c(-c4ccc5[nH]c(-c6ccc(OCC)cc6)nc5c4)nc3c2)CC1` has a growth percent of 21.1% (SRB; 10 µM, 48 h).
For `NC(=O)NO`, the cell confluence was 31.9 ± 5.77% (cell growth, live-cell imaging; 200 µM, control at 90% confluence).
`COc1ccc(OC)c(-c2nc3ccc(-c4nc5ccc(N6CCN(C)CC6)cc5[nH]4)cc3[nH]2)c1` gave a growth percent of 82.1% (SRB; 10 µM, 48 h).
For `O=C(O)c1ccc(Nc2c(-c3ccccc3)nc3ccccn23)cc1`, the synergy score was -1.3 (cell viability; 72 h, added: camptothecin; direction not given).

For quick reference, copied from above:
For `CCn1cc(-c2cc(Cn3ccoc3=N)cc3c2CCN([C@@H](C)c2cc(OC)ccn2)C3=O)c(C(F)(F)F)n1`, the EC50 was 22.3 µM (cell growth, inhibitor; 120 h).
The log10 TGI of `S=C([S][Au-][P+](CCCCCC[P+]([Au-][S]C(=S)n1cccn1)(c1ccccc1)c1ccccc1)(c1ccccc1)c1ccccc1)n1cccn1` is reported as over -4 (cell growth, NCI-60 screen; colon cancer).
`NC(=O)NOCCCCCCCCCCCC[P+](c1ccccc1)(c1ccccc1)c1ccccc1.O=C([O-])C(F)(F)F` has a cell confluence of 3.1 ± 0.62% (cell growth, live-cell imaging; 5 µM, control at 90% confluence).
